{"sequences": {"note": "Sequences of proteins named here, by UniProt entry; tags and fusion partners are left off.", "UniProt P08183, whole entry": "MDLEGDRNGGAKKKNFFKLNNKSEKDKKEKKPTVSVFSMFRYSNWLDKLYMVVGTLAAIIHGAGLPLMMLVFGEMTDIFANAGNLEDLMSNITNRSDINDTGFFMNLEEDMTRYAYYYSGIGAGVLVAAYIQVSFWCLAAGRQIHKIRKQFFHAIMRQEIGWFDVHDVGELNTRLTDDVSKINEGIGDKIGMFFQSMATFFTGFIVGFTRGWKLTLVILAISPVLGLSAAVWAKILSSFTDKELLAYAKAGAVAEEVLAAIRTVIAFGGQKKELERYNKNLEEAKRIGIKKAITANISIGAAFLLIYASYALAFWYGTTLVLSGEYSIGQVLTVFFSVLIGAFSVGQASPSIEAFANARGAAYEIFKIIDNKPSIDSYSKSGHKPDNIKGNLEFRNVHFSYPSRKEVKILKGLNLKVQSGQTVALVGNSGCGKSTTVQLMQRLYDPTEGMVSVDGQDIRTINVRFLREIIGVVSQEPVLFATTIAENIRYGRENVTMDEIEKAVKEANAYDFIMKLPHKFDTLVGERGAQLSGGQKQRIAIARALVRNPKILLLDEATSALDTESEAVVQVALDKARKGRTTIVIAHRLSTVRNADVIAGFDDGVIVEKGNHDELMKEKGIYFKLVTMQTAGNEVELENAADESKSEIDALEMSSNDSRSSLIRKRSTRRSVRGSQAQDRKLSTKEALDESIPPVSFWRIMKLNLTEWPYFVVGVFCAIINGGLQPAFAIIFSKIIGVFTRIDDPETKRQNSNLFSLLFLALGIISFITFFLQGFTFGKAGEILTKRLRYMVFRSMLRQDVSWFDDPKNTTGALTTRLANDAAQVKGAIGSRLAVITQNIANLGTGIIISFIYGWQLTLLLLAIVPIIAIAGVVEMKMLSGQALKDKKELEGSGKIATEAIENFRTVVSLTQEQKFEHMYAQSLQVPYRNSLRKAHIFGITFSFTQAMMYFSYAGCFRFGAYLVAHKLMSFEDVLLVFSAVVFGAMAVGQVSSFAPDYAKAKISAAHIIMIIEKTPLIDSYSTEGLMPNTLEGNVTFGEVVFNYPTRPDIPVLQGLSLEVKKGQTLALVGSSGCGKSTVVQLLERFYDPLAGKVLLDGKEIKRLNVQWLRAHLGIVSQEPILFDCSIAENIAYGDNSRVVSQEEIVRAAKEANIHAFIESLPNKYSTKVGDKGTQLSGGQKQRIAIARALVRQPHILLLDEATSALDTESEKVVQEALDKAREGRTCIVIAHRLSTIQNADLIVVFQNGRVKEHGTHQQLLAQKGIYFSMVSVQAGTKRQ", "UniProt P05181, whole entry": "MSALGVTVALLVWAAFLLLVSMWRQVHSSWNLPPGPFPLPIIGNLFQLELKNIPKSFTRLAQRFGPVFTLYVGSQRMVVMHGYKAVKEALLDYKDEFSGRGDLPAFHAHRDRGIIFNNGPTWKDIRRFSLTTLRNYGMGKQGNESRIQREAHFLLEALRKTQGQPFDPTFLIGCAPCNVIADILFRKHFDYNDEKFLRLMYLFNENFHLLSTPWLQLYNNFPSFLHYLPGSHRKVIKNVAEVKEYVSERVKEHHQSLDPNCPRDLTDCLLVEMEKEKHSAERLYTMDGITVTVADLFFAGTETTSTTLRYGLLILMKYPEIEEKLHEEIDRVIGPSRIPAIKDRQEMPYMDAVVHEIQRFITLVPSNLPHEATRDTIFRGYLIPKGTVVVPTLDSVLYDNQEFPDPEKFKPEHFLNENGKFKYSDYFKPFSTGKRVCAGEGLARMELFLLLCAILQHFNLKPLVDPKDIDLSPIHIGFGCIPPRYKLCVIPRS", "UniProt P54098, whole entry": "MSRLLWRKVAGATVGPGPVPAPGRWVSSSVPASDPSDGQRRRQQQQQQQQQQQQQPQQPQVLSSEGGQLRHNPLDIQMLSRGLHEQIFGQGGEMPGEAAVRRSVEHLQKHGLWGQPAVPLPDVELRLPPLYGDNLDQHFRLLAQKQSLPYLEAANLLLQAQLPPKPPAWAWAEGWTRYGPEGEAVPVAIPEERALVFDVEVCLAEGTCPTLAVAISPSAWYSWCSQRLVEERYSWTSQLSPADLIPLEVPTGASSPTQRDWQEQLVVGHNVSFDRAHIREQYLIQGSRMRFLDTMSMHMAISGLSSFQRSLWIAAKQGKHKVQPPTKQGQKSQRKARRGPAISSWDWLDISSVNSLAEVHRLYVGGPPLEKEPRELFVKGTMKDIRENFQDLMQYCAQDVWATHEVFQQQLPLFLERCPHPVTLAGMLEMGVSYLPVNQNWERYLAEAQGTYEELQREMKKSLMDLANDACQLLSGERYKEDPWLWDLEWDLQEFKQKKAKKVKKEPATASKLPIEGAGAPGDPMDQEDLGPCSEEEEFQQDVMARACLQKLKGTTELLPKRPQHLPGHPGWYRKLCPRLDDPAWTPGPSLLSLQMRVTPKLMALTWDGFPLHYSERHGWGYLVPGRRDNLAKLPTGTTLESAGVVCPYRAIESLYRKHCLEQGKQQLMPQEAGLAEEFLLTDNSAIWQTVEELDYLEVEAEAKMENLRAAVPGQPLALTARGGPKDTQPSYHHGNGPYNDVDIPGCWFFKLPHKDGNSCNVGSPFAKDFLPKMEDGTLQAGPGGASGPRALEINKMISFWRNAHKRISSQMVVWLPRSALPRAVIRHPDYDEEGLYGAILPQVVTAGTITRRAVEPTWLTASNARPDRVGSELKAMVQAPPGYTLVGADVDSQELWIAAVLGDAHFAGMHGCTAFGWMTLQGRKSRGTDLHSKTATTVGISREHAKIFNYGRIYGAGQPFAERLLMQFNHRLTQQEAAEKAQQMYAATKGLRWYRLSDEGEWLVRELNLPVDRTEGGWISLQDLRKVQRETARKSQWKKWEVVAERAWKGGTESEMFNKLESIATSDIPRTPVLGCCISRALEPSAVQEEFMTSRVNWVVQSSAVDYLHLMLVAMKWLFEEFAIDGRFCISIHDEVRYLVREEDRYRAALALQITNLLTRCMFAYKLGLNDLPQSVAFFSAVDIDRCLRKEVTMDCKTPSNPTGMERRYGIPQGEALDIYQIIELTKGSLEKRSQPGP", "UniProt Q16539, whole entry": "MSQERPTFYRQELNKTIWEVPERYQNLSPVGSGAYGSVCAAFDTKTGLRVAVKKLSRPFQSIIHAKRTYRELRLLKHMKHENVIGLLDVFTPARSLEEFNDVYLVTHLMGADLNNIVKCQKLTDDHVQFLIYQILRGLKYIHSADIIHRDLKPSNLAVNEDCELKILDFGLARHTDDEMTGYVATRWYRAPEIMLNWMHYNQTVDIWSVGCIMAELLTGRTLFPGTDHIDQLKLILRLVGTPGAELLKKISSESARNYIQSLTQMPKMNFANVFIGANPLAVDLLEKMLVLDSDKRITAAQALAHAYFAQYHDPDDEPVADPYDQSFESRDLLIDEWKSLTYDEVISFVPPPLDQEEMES"}, "data": "Results pooled from the literature", "note": "Lines come from different studies, so protocols differ. “And” joins repeats or separate records; there may be more than shown. ± gives the spread as reported."}
{"SMILES": "CCOC(=O)C1=C(C)N(c2cccc(C(F)(F)F)c2)C(=O)N(CC(=O)N(C)C)[C@@H]1c1ccc(C#N)cc1", "system": "rat hepatocytes", "quantity": "Fmax", "value": "13%"}
{"SMILES": "Cc1cc(S(=O)(=O)N[C@H](C)CO[C@H]2CC[C@H](CN3CCN(c4ccc5c(c4F)n(C)c(=O)n5C4CCC(=O)NC4=O)CC3)CC2)ccc1Nc1ncc(C(F)(F)F)c([C@H]2CC[C@@](C)(O)CC2)n1 (stereo partly shown)", "target or system": "ABCB1 (Homo sapiens, UniProt P08183)", "test": "bidirectional permeability", "system": "MDCK transfected with ABCB1", "scale": "reference: B-A over A-B permeability", "quantity": "efflux ratio", "value": "> 530"}
{"SMILES": "CCCOc1ncnc2scc(C(=O)NCc3ccc(CN4CCOCC4)cc3)c12", "target or system": "human red blood cells", "test": "hemolysis", "conditions": "1 h, 37 °C, estimated, weak activity", "quantity": "EC50", "value": "> 100 µM"}
{"SMILES": "NS(=O)(=O)c1nnc(NC(=O)C2C3CC4CC(C3)CC2C4)s1 (stereo not shown)", "system": "PBS", "conditions": "pH 7.4", "quantity": "kinetic solubility", "value": "166 µM"}
{"SMILES": "Cc1ccc(S(=O)(=O)Nc2ccccc2C(=O)Nc2nc(-c3ccccc3)cs2)cc1", "system": "PBS pH 7.4", "conditions": "10 mM DMSO stock", "quantity": "kinetic solubility", "value": "< 1 µg/mL"}
{"SMILES": "CN1C(=O)CCc2cc(CNC(C)(C)[C@@H](O)c3ccccc3)ccc21", "system": "male CD-1 mouse, brain", "conditions": "subcutaneous, 10 mg/kg", "quantity": "Cmax", "value": "2960 ng/g"}
{"SMILES": "CCCCCCCCC/C=C/C=O", "target or system": "Cytochrome P450 2E1 (CYP2E1, Homo sapiens, UniProt P05181)", "test": "competitive inhibitor", "system": "human liver S9", "conditions": "added: p-nitrophenol", "quantity": "Ki", "value": "2.6 ± 0.1 µM"}
{"SMILES": "CC/C=C\\C/C=C\\CCC/C=C/C=C/C=C\\CCCC(=O)O", "target or system": "POLG (Homo sapiens, UniProt P54098)", "test": "enzyme activity, inhibitor", "quantity": "IC50", "value": "11 ± 0.7 µM"}
{"SMILES": "CCOC(=O)c1c(-c2ccc(Cl)cc2Cl)n(-c2nc(-c3ccc(Cl)cc3)c3c(NC(=O)c4ccccc4)nnc-3[nH]2)[nH]c1=O", "target or system": "UACC-62", "test": "SRB", "conditions": "10 µM", "quantity": "cell growth", "value": "14.3%"}
{"SMILES": "C=C(C)C(=O)Nc1ccc(-c2c(-c3ccc(Oc4nccc(C)n4)c(F)c3)c3c(N)ncnc3n2C)cc1", "target or system": "MFE-319", "test": "cell growth, CellTiter-Glo", "conditions": "120 h, unit not given", "scale": "reference: untreated growth rate, higher = stronger inhibition", "quantity": "area over GR curve", "value": 0.0307}
{"SMILES": "CCCCCCCCNCc1ccc(CNC(=O)c2csc3ncnc(OCc4ccc(N=[N+]=[N-])cc4)c23)cc1", "target or system": "human red blood cells", "conditions": "100 µM", "quantity": "hemolysis", "value": "~6%"}
{"SMILES": "N#Cc1c(-c2ccc(Cl)cc2Cl)n(-c2nc(-c3ccc(Cl)cc3)c3c(NC(=O)c4ccccc4)nnc-3[nH]2)[nH]c1=O", "target or system": "UACC-62", "test": "SRB", "conditions": "10 µM", "quantity": "cell growth", "value": "30.1%"}
{"SMILES": "NS(=O)(=O)c1nnc(NC(=O)CC2C3CC4CC(C3)CC2C4)s1 (stereo not shown)", "system": "mouse liver microsomes", "quantity": "half-life", "value": "> 2 h"}
{"SMILES": "O=C(NCc1ccco1)C1CN(c2cc(-c3cc(F)cc(F)c3)n[nH]c2=O)C1", "target or system": "BJ or MRC5 fibroblasts", "test": "cytotoxicity, MTS", "quantity": "IC50", "value": "> 50 µM"}
{"SMILES": "COc1ncnc2scc(C(=O)NCc3ccc(CNCc4ccccc4)cc3)c12", "target or system": "human red blood cells", "test": "hemolysis", "conditions": "1 h, 37 °C, estimated, weak activity", "quantity": "EC50", "value": "> 100 µM"}
{"SMILES": "CC(C)C[C@H](NC(=O)[C@H](C)NC(=O)[C@H](CCCNC(=N)N)NC(=O)[C@H](CCCNC(=N)N)NC(=O)[C@H](CCCNC(=N)N)NC(=O)[C@H](C)NC(=O)[C@H](CC(C)C)NC(=O)[C@H](CCCNC(=N)N)NC(=O)[C@H](CO)NC(=O)[C@H](CCCCN)NC(=O)[C@H](CO)NC(=O)Cn1cc(COC(=O)[C@]2(C)C=C(C(=O)OC(C)(C)C)C(=O)CC2)nn1)C(=O)O", "target or system": "MAPK14 (Homo sapiens, UniProt Q16539)", "test": "enzyme activity, inhibitor, D-SENSOR kinase", "conditions": "0.2743 µM, unit not given", "scale": "reference: untreated", "quantity": "remaining activity", "value": "0.599 and 0.606 and 0.581"}
{"note": "A few entries again:"}
{"SMILES": "CCOC(=O)c1c(-c2ccc(Cl)cc2Cl)n(-c2nc(-c3ccc(Cl)cc3)c3c(NC(=O)c4ccccc4)nnc-3[nH]2)[nH]c1=O", "target or system": "UACC-62", "test": "SRB", "conditions": "10 µM", "quantity": "cell growth", "value": "14.3%"}
{"SMILES": "C=C(C)C(=O)Nc1ccc(-c2c(-c3ccc(Oc4nccc(C)n4)c(F)c3)c3c(N)ncnc3n2C)cc1", "target or system": "MFE-319", "test": "cell growth, CellTiter-Glo", "conditions": "120 h, unit not given", "scale": "reference: untreated growth rate, higher = stronger inhibition", "quantity": "area over GR curve", "value": 0.0307}
